Results of several laboratories.
Each numbered part is a random draw from the data of one study; scales do not carry over between parts. Changes are numbered by the printed parent chain.

Study 1
Target: RNA binding protein fox-1 homolog 2, RRM domain, GST-SBP tag (RBFOX2, Homo sapiens, UniProt O43251-10, residues 100-194)
Method: RNA Bind-n-Seq
Form: RNA
Matrix: in vitro
Tested at: 365 nM
Notes: natural RNA segment, single round, ends assumed
Reference: no-protein control
Reading: higher = stronger binding
Quantity: RBNS enrichment (R)
All sequences stand within: GGGAGUUCUACAGUCCGACGAUC … UGGAAUUCUCGGGUGCCAA
AUUAUUUUGAUGUAUUAAGAUGAAUAUUGCUGAUUUAAAUUUUAUUUAUGCACAUACUUAAAGGACAGAAAUGUCUGGGAAAGUAAUUGUUAAAUAAUGAUAUGUAACUU: 0.476
CACAAAACCCACAACCCAGCACAAAGUCGACAAUGGAUUUUGUUUCUUUGAUUUAUUUUGCCAAUGGCAAAAAGACAAGACCUCGUUAGCACUGAGGAUUCUUGUUCCCU: 0.503
UUAUAAUAAAAGCCUUACGGACAAACCUACUGUGGGCUCCAGCCUUUGUCCUGAGAUAGCCAAGCGGAGAAUGGGCAGUUUCUUUACCAGUUUGUGAGAGAGAGGAGGGA: 1.37
CACUGGAUUAUGAGGAAUGGAUAAAUGGAUGAGCUAGGGCUCUGGGGGUCUGCCUGCACACUCUGGGGAGCCAGGGGCCCCAGCACCCUCCAGGACAGGAGAUCUGGGAU: 2.78
GCUGAAUUUAUAUUUGUAAAUUUAUUUUGCCAUCUUUAAGUCACAUUUUUGUUUCAUUGUUUAAAAGUACUGAAAUGUUCCACCCUGUUAUGUUUUCCUGUACUAGAUGG: 1.2
CAGUAUAUGUUUUGGGAUUUUUCUGUAAAAUGGGUGUAAUUUUCCUAAUACAGGUAUGUAACAACAAAAGAAGUUGCCUGCAUGCCGGUCCAAAUUGUUCUGUAUAAAGA: 1.07
UUCAUGGUUUCUAGGAAAAGCUGCAUUGGGGUGGGGAGACCCAGUUUGCCUCAUAGGCAGAGGAUUCUCCAGGAAGCAUGGAAAAUGGAAUGUUUCCAUGCUUUACAGUG: 0.998
GUGAUGGCUGUCUCUCUCUAGUAAUGUCCUUGUUCUUAUUCUUCCCUCCUACAGCUGGCCUAACCACUCUUGAGUCGGGGUGGGGGUAACCCUCAAGGAGGAGGUAACUA: 0.543

Study 2
Target: Interferon regulatory factor 7, full length, phosphomimetic (IRF7, Homo sapiens, UniProt Q92985, residues 1-503, S471D/S472D/S475D/S476D/S477D/S483D/S484D/S487D)
Method: protein-binding microarray
Form: double-stranded DNA, one strand shown
Matrix: in vitro
Tested at: 2200 nM top
Notes: 60-bp whole probe
Added: salmon DNA 0.4 mg/ml
Reference: random background probes
Reading: higher = stronger binding
Quantity: fitted relative affinity
All sequences stand within: GCCTAGCAC … GTCTTGATTCGCTTGACGCTGCTG
Residues (chain): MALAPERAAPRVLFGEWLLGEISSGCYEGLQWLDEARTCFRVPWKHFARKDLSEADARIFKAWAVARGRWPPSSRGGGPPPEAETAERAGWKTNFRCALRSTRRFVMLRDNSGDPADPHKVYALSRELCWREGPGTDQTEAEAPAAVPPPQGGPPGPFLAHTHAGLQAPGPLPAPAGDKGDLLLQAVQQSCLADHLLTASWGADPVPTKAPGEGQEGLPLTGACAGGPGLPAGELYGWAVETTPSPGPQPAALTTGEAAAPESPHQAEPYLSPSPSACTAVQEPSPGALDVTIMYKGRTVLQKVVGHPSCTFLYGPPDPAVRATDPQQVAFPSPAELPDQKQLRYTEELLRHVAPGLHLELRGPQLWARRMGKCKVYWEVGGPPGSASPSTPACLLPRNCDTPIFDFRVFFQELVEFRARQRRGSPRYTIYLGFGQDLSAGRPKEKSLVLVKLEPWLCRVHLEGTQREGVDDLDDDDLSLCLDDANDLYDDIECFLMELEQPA
TTAGATTACAGTCTCGATTAGTGCTAG: 0.505 z-score
TCACACTTCCTTCTGCCACTGTGCTAG: 2.52 z-score
TTAGGACTGGGGTATCGGCTAGTGCTA: -0.615 z-score
TCAGCTTTCCTTTGCTTACTGTGCTAG: 2.7 z-score
GACGATCTCAGTCTCCAGACGTGCTAG: 0.323 z-score
ATGCTGGTCACTCTCTGGGCGTGCTAG: 0.0407 z-score
TTAGGTTTGCTACTGCTTTAGTGCTAG: 0.426 z-score
TAGTCTCTTCTGCAGCCTTTGTGCTAG: 0.882 z-score
TTAAGTATCGGGACTGGGTTAGTGCTA: -0.413 z-score
GACGGTTTCCTTATCCTGGCGTGCTAG: 3.11 z-score
TTAGATTTCGGGTATCGATTCGTGCTA: 3.57 z-score
GACGATCACAGTATCGAGACGTGCTAG: 0.0331 z-score
GACGGTTTCGGACTTGGGACGTGCTAG: 3.25 z-score
GTAGGTTCCGGTTTCGGTTAGTGCTAG: 8.83 z-score
GACGATTTCGGGTATCGGGACGTGCTA: 2.88 z-score
GACGATTTCAGTCTTGAGACGTGCTAG: 0.734 z-score
GACGGTTTCGGGTTTCGGGAAGTGCTA: 8.72 z-score
TCAGTTCTGCTTCTTAGACTGTGCTAG: 1.66 z-score
GACGGTCTCGGATTGGGGACGTGCTAG: 0.275 z-score

Study 3
Target: Max-binding protein MNT, bHLH-zipper, MAX partner unstated (MNT, Homo sapiens, UniProt Q99583, residues 220-300)
Method: protein-binding microarray
Form: double-stranded DNA, one strand shown
Matrix: in vitro
Tested at: not given
Notes: k-mer, scored over probes, only values ≥0.25
Reading: higher = stronger binding
Quantity: E-score
Construct (chain): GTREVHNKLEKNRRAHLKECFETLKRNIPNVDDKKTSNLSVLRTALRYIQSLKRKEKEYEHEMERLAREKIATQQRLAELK
CGTGCGGC: 0.372
ACATGTCC: 0.349
CATGCATC: 0.29
ACGAGGTA: 0.317
ACACGCAT: 0.345
AATGTGCT: 0.261
CGCGAGCA: 0.275
CGCCCCTC: 0.261
CACCTGAC: 0.278
AGGCGTGG: 0.329
AGCACGAT: 0.274

Study 4
Target: CCNB1, cyclin fold, Cln2 fusion (human)
Method: yeast growth competition, sequencing
Matrix: yeast
Notes: weak parent motif
Reference: not given
Reading: higher = stronger binding
Quantity: normalised enrichment score
Starting sequence: RBL1 docking peptide (human); GSAKRRLFGEDPP
P12Y: 1.43
R5M: 0.664
K4C: 1.12
K4D: -0.27
P12V: 0.512
R5V: 0.232
K4G: 0.151
G1F: 2.36
E10G: 0.0652
R6W: 0.0744
A3F: 1.64
R6K: 0.648
E10T: 0.323
L7K: 1.23
P13W: 1.15
R6C: 0.0556
